Assay results from different studies.
Protocols differ between the studies behind these lines. ± marks the error that the study gave.
Tubulin alpha-1B chain/TUBB2B: Tubulin alpha-1B chain/TUBB2B (Bos taurus, UniProt P81947+Q6B856)
UniProt Q6B856, sequence (whole entry, looked up): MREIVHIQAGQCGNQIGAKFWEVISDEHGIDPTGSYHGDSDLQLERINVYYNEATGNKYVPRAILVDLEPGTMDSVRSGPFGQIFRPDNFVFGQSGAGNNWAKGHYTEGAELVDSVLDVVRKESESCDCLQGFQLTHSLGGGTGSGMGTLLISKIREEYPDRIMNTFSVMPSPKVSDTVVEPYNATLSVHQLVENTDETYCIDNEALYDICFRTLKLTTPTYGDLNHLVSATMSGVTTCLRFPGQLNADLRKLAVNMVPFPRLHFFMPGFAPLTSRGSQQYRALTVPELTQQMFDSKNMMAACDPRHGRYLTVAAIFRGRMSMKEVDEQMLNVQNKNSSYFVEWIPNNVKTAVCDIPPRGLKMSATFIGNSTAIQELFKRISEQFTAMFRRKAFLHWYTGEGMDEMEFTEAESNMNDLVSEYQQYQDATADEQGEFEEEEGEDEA
UniProt P81947, sequence (whole entry, looked up): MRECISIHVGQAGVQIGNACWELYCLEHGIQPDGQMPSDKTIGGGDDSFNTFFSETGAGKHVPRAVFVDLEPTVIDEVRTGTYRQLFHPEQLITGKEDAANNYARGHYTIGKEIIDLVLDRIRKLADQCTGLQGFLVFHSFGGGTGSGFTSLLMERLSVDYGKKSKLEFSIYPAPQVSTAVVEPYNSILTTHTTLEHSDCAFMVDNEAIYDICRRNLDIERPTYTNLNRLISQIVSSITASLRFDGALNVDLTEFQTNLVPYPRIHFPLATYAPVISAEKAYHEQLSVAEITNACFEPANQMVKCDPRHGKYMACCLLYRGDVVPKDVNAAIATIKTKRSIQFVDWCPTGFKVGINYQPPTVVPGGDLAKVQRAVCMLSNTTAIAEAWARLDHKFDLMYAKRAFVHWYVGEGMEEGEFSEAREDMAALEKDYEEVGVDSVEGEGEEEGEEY
HLA class I histocompatibility antigen, A alpha chain allele A*02:01: HLA class I histocompatibility antigen, A alpha chain, allele A*02:01 (Homo sapiens, UniProt P04439)
HLA class I histocompatibility antigen, A alpha chain allele A*01:01: HLA class I histocompatibility antigen, A alpha chain, allele A*01:01 (Homo sapiens, UniProt P04439)
HLA class I histocompatibility antigen, A alpha chain allele A*26:01: HLA class I histocompatibility antigen, A alpha chain, allele A*26:01 (Homo sapiens, UniProt P04439)
HLA class I histocompatibility antigen, A alpha chain allele A*24:02: HLA class I histocompatibility antigen, A alpha chain, allele A*24:02 (Homo sapiens, UniProt P04439)
UniProt P08684, sequence (whole entry, looked up): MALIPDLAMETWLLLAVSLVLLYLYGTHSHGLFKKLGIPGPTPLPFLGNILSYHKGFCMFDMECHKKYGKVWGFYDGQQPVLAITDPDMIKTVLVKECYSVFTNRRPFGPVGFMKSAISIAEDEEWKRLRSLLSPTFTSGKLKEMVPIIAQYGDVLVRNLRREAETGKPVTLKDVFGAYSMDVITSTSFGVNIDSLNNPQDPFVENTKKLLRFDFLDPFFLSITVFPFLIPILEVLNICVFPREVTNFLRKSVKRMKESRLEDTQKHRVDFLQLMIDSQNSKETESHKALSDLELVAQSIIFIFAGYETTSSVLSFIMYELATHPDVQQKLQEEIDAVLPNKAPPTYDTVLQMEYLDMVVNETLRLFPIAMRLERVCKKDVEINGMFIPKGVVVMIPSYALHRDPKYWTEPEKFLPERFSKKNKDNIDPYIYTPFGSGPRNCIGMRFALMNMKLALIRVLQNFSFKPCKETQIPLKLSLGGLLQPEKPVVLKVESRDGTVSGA
UniProt P56817, sequence (whole entry, looked up): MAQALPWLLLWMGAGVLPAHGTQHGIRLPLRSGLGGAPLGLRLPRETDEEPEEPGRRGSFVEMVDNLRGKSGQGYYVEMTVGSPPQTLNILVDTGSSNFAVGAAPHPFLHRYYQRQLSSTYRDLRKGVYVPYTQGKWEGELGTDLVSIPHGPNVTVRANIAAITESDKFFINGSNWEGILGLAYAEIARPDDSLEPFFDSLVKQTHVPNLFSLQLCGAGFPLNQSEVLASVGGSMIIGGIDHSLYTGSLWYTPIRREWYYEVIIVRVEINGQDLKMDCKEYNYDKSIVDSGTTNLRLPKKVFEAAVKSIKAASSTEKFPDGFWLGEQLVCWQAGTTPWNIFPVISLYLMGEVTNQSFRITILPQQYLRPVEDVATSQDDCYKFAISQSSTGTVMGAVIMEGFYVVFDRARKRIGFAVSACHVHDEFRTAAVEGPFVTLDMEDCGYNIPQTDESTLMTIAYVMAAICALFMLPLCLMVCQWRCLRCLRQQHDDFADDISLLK
UniProt P47989, sequence (whole entry, looked up): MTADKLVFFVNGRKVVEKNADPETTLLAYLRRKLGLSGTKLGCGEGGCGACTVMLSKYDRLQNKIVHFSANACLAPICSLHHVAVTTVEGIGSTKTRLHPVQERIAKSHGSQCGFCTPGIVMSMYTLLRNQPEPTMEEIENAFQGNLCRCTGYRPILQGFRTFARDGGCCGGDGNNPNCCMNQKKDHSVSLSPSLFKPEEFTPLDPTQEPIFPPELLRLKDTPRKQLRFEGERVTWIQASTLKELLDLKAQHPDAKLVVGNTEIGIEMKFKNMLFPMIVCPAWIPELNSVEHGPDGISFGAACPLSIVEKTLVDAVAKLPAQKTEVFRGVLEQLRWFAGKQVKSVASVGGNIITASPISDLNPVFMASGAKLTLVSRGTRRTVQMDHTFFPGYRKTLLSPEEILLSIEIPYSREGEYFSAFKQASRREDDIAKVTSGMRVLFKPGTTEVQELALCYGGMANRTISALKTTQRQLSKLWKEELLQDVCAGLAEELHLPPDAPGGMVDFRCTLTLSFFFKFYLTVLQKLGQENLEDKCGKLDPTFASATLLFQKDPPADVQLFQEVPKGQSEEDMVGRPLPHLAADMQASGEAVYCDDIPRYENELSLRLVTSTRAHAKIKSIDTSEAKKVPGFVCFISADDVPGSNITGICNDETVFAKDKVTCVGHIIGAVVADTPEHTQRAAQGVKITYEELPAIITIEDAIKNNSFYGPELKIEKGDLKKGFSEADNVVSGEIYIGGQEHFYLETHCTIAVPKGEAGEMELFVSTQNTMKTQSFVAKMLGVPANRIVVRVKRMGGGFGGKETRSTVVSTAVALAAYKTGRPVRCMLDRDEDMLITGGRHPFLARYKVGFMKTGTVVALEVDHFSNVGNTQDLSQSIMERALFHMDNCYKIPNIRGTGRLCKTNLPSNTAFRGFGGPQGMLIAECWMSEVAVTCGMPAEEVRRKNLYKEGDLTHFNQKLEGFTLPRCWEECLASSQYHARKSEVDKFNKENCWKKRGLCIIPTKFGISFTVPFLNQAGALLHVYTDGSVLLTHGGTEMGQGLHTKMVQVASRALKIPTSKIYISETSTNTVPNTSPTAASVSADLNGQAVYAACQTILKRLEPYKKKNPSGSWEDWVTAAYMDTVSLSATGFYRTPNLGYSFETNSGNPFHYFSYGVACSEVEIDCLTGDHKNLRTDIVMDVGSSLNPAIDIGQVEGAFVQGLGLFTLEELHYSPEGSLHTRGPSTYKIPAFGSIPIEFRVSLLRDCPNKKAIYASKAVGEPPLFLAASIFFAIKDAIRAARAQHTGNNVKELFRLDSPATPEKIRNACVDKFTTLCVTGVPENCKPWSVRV
UniProt Q15116, sequence (whole entry, looked up): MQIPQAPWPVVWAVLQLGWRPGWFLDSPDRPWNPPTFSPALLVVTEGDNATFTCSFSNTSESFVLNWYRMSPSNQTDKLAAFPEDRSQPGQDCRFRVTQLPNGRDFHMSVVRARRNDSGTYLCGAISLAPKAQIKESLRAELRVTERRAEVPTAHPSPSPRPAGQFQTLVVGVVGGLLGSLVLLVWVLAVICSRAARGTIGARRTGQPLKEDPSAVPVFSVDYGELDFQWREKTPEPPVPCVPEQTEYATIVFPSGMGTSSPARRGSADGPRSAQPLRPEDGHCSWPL
UniProt P20782, sequence (whole entry, looked up): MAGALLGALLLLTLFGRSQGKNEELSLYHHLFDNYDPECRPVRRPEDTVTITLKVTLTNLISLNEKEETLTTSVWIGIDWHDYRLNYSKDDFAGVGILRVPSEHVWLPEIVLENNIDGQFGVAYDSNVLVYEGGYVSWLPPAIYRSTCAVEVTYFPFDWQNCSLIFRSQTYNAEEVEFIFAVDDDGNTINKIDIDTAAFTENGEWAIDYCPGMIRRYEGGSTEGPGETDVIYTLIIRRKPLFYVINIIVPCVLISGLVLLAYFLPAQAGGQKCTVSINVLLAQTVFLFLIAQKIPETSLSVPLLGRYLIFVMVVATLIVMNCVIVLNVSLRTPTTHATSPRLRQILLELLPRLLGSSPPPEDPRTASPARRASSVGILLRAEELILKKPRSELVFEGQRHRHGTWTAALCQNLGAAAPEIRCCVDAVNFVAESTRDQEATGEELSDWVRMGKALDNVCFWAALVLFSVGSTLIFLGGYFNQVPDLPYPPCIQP
UniProt P09690, sequence (whole entry, looked up): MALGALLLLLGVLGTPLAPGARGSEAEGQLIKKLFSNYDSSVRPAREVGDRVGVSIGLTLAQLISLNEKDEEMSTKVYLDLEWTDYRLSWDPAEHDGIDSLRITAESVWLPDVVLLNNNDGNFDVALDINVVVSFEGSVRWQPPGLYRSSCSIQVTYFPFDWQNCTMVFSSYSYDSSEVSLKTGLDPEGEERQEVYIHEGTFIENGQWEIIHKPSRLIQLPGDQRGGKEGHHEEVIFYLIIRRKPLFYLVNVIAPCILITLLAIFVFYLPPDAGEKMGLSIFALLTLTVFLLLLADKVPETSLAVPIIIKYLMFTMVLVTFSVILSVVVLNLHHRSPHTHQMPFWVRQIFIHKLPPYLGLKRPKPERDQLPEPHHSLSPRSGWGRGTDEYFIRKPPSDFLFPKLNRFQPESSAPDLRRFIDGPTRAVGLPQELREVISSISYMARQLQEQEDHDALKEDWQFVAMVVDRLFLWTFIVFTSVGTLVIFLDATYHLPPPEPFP
UniProt P04756, sequence (whole entry, looked up): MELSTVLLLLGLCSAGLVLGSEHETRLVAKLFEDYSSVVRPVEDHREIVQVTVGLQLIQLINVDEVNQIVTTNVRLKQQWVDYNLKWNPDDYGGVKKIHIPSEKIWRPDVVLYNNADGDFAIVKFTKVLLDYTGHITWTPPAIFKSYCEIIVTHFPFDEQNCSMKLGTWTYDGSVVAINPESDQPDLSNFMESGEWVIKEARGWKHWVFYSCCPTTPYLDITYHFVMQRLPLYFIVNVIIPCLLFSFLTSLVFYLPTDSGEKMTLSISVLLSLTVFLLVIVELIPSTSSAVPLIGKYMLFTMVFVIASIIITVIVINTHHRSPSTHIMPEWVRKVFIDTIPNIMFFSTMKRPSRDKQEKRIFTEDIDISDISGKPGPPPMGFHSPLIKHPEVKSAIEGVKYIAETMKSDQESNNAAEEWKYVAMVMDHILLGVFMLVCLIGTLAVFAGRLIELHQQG

| SMILES | target | assay | system | setting | IC50 [µM] |
| --- | --- | --- | --- | --- | --- |
| COc1cc(Nc2ncc(F)c(Nc3ccc4c(n3)NC(=O)C(C)(C)O4)n2)cc(OC)c1OC | IP3 receptor | – | – | – | > 10 |
| CCc1ccc(-c2ccc3c(C(=O)c4cc(OC)c(OC)c(OC)c4)c[nH]c3c2)cc1 | Tubulin alpha-1B chain/TUBB2B | tubulin polymerization, inhibitor, turbidimetric | – | added: 10 µM bovine tubulin | > 20 |
| CC[C@@H](C)[C@H]1NC(=O)[C@@H](CCC(=O)O)NC(=O)[C@@H](CO)NC(=O)[C@@H](C)NC(=O)[C@@H](Cc2ccccc2)NC(=O)[C@@H](CC(=O)O)NC(=O)[C@H](NC(=O)[C@@H](CCCNC(=N)N)NC(=O)[C@H](NC(=O)[C@@H](C)NC(=O)[C@@H](CC(C)C)NC(=O)[C@@H](CO)NC(=O)[C@H](NC(=O)[C@@H](CCC(N)=O)NC(=O)[C@@H](CO)NC(=O)[C@H](NC(=O)[C@@H](C)NC(=O)[C@@H](Cc2ccc(O)cc2)NC(=O)[C@H]2CCCN2C(=O)[C@H](N)CCCNC(=N)N)C(C)C)[C@H](C)CC)C(C)C)CSSC[C@H](C(=O)N[C@H](CCC(N)=O)C(=O)N[C@H](CCCNC(=N)N)C(=O)N[C@H](CCC(N)=O)C(N)=O)NC(=O)[C@@H](Cc2ccc(O)cc2)NC(=O)[C@@H](CO)NC(=O)[C@@H](CCC(=O)O)NC(=O)[C@@H](CCCCN)NC(=O)[C@@H](CC(C)C)NC(=O)[C@@H](CCCCN)NC(=O)[C@@H](CCCCN)NC(=O)[C@@H](CC(C)C)NC(=O)[C@@H](Cc2c[nH]cn2)NC(=O)[C@@H]([C@H](C)O)NC(=O)[C@@H]([C@H](C)O)NC(=O)[C@@H](CCSC)NC(=O)[C@@H](CCCCN)NC(=O)[C@@H](C(C)C)NC(=O)[C@@H](CCCCN)NC(=O)[C@@H](Cc2ccccc2)NC(=O)[C@@H](Cc2c[nH]cn2)NC1=O | Programmed cell death protein 1, with PD-L1 (PDCD1, Homo sapiens, UniProt Q15116) | PD-1/PD-L1 binding, inhibitor, HTRF | – | 2 h, room temperature | 36.9 |
| CC[C@H](C)[C@H](NC(=O)[C@H](CCCNC(=N)N)NC(=O)[C@@H]1CCCN1C(=O)[C@H](C)N)C(=O)N[C@H](C(=O)N[C@@H](Cc1ccccc1)C(=O)NCC(=O)NCC(=O)N1CCC[C@H]1C(=O)O)[C@@H](C)O | HLA class I histocompatibility antigen, A alpha chain allele A*02:01 | peptide-MHC binding, radioligand competition binding | – | – | 0.893 |
| CSCC[C@H](NC(=O)[C@@H](N)Cc1c[nH]cn1)C(=O)N[C@@H](Cc1ccc(O)cc1)C(=O)N1CCC[C@H]1C(=O)N[C@@H](CC(N)=O)C(=O)N[C@@H](Cc1ccccc1)C(=O)N[C@H](C(=O)N[C@@H](CCC(N)=O)C(=O)N[C@@H](Cc1ccccc1)C(=O)O)C(C)C | HLA class I histocompatibility antigen, A alpha chain allele A*01:01 | binding | – | – | 69.2 |
| CCN(CC)CCCC(C)Nc1ccnc2cc(Cl)ccc12 (centres unmarked) | SLC22A2 (Homo sapiens, UniProt O15244) | transport activity, inhibitor | – | 10 (unit not given), added: metformin | 103 ± 45.7 |
| COc1ccc([C@@H]2CC(=O)c3c(O)cc(O[C@@H]4O[C@H](CO[C@@H]5O[C@@H](C)[C@H](O)[C@@H](O)[C@H]5O)[C@@H](O)[C@H](O)[C@H]4O)cc3O2)cc1O | XDH (Homo sapiens, UniProt P47989) | enzyme activity, inhibitor | – | – | > 75 |
| COc1ccc2c(c1NC(=O)OCc1ccc(NC(=O)[C@H](CCCNC(N)=O)NC(=O)[C@@H](NC(=O)CCCCCN3C(=O)C=CC3=O)C(C)C)cc1)CCCC=C2c1cc(OC)c(OC)c(OC)c1 | Tubulin alpha-1B chain/TUBB2B | tubulin polymerization, inhibitor, turbidimetric | – | 20 min, 30 °C, added: tubulin 10 µM | 6.2 ± 0.3 |
| CC[C@H](C)[C@H](NC(=O)[C@@H]1CCCN1C(=O)[C@@H](NC(=O)[C@H](CC(C)C)NC(=O)[C@H](CCC(N)=O)NC(=O)[C@H](Cc1ccccc1)NC(=O)[C@H](C)NC(=O)[C@@H](N)CCCCN)[C@@H](C)O)C(=O)N[C@@H](C)C(=O)N[C@H](C(=O)O)C(C)C | HLA class I histocompatibility antigen, A alpha chain allele A*26:01 | peptide-MHC binding, radioligand competition binding | – | – | > 70 |
| CC[C@H](C)[C@H](NC(=O)[C@H](CCCCN)NC(=O)[C@H](CO)NC(=O)[C@H](Cc1ccccc1)NC(=O)[C@H](CCSC)NC(=O)[C@@H](N)CCCCN)C(=O)N[C@@H](CCSC)C(=O)N[C@H](C(=O)N[C@@H](Cc1ccc(O)cc1)C(=O)O)[C@@H](C)O | HLA class I histocompatibility antigen, A alpha chain allele A*24:02 | binding | – | – | 59.9 |
| CNC(C)Cc1ccc2n[se]nc2c1 (centres unmarked) | SLC22A3 (Homo sapiens, UniProt O75751) | – | – | – | 1130 ± 682 |
| CC(C)C[C@H](NC(=O)[C@@H]1CCCN1C(=O)[C@H](Cc1c[nH]c2ccccc12)NC(=O)[C@H](CC(=O)O)NC(=O)[C@H](Cc1ccc(O)cc1)NC(=O)[C@@H](NC(=O)[C@@H](N)Cc1ccc(O)cc1)C(C)C)C(=O)N[C@H](C(=O)N[C@@H](Cc1ccccc1)C(=O)O)[C@@H](C)O | HLA class I histocompatibility antigen, A alpha chain allele A*02:01 | binding | – | – | 1.03 |
| NC(=O)CC[C@@H]1NC(=O)[C@H](Cc2ccccc2)NC(=O)[C@H](Cc2ccc(O)cc2)NC(=O)[C@@H](N)CSSC[C@@H](C(=O)N2CCC[C@H]2C(=O)N[C@@H](CCCN=C(N)N)C(=O)NCC(N)=O)NC(=O)[C@H](CC(N)=O)NC1=O | Oxytocin receptor (Macaca mulatta, UniProt P56494) | membrane hyperpolarisation, FMP blue membrane potential dye | CHO cells | – | 0.0166 |
| CC(C)S[C@@H]1O[C@H](CO)[C@H](O)[C@H](O)[C@H]1O | lacI (Escherichia coli, UniProt P03023, D149A/N125A) | inhibitor | – | – | 17 |
| C[N+]1(C)CCN(c2cccc(Cl)c2)CC1 | Nicotinic acetylcholine receptor alpha1/beta1/epsilon/delta (Mus musculus, UniProt P02716+P04756+P09690+P20782) | ion current, inhibitor, two-electrode voltage clamp | Xenopus oocytes | – | 345 ± 224 |
| O=C1Cc2cc(-c3ccco3)ccc2C(=O)N1O | Holliday junction resolvase (Fowlpox virus, UniProt Q9J546) | – | – | – | 0.084 |
| CSCC[C@H](NC(=O)[C@H](Cc1c[nH]cn1)NC(=O)[C@H](CC(=O)O)NC(=O)[C@H](Cc1ccc(O)cc1)NC(=O)[C@H](CCC(N)=O)NC(=O)[C@@H](N)CCCCN)C(=O)N[C@@H](Cc1ccc(O)cc1)C(=O)N[C@@H](CCC(N)=O)C(=O)N[C@@H](CC(C)C)C(=O)O | HLA class I histocompatibility antigen, A alpha chain allele A*24:02 | binding | – | – | 27.8 |
| Nc1c2c(nc3c1C(c1ccc(Cl)c(Cl)c1)c1ccc(OCC(=O)c4ccc(Cl)cc4)cc1O3)CCCC2 (centres unmarked) | Beta-secretase 1 (BACE1, Homo sapiens, UniProt P56817) | enzyme activity, inhibitor | – | – | 0.446 |
| CC(C)[C@H](NC(=O)[C@@H](NC(=O)[C@H](CCCNC(=N)N)NC(=O)[C@H](C)NC(=O)[C@H](C)NC(=O)[C@H](CCC(=O)O)NC(=O)[C@H](CO)NC(=O)[C@H](C)NC(=O)[C@@H](N)Cc1ccccc1)C(C)C)C(=O)O | HLA class I histocompatibility antigen, A alpha chain allele A*26:01 | peptide-MHC binding, radioligand competition binding | – | – | 0.734 |
| CSCC[C@H](NC(=O)[C@H](CO)NC(=O)[C@H](CC(C)C)NC(=O)[C@@H](NC(=O)[C@H](Cc1c[nH]cn1)NC(=O)[C@H](CCCCN)NC(=O)[C@H](Cc1ccccc1)NC(=O)[C@H](CCC(N)=O)NC(=O)[C@@H](N)CCCCN)[C@@H](C)O)C(=O)O | HLA class I histocompatibility antigen, A alpha chain allele A*02:01 | binding | – | – | 18.2 |
| Cc1c(C2(c3ccc(C(F)(F)F)nc3)CC2)c[nH]c1C(=O)NC(C)c1c[nH]cn1 (centres unmarked) | Cytochrome P450 3A4 (CYP3A4, Homo sapiens, UniProt P08684) | enzyme activity, inhibitor | – | – | 0.86 |
| O=C(OC(C(F)(F)F)C(F)(F)F)N1CCN(Cc2cccc(Oc3ccccc3)c2)CC1 | MGLL (Homo sapiens, UniProt Q99685) | enzyme activity, inhibitor | – | added: FP-biotin 1 µM | 0.0537 |
| CC[C@H](C)[C@H](NC(=O)[C@H](Cc1c[nH]cn1)NC(=O)CNC(=O)[C@H](Cc1ccc(O)cc1)NC(=O)[C@H](CCC(N)=O)NC(=O)[C@@H](N)Cc1c[nH]cn1)C(=O)N[C@@H](CC(C)C)C(=O)N[C@@H](CCC(N)=O)C(=O)N[C@@H](Cc1ccc(O)cc1)C(=O)O | HLA class I histocompatibility antigen, A alpha chain allele A*01:01 | binding | – | – | 72.5 |
| COc1c(Br)cccc1C(=O)Nc1ccc(Sc2nc3ccccc3s2)cc1 | Chaperonin GroEL, with GroES (groEL, Escherichia coli, UniProt P0A6F5) | GroEL/ES-mediated refolding, inhibitor | – | added: denatured malate dehydrogenase substrate | > 100 |
| C[C@H]1CN(c2n[nH]c3nc(N[C@H]4CC[C@H](NS(=O)(=O)CCC(F)(F)F)CC4)ncc23)CCO1 | Elongin-B (Homo sapiens, UniProt Q15370) | biochemical | – | – | ≥ 20 |
| CC(C)C[C@H](NC(=O)[C@H](CCC(=O)O)NC(=O)[C@H](CC(C)C)NC(=O)[C@@H]1CCCN1C(=O)[C@H](CCCCN)NC(=O)[C@H](CO)NC(=O)[C@H](Cc1ccc(O)cc1)NC(=O)[C@@H](NC(=O)[C@@H](N)Cc1ccc(O)cc1)[C@@H](C)O)C(=O)O | HLA class I histocompatibility antigen, A alpha chain allele A*01:01 | binding | – | – | 0.937 |
| NC(=S)Nc1ccccc1 | uncharacterized protein (Drosophila suzukii, UniProt A0AB39ZGK5) | binding, bis-ANS competition fluorescence | – | pH 7.4, added: bis-ANS | > 50 |
| CC[C@H](C)[C@H](NC(=O)[C@@H](N)CCCNC(=N)N)C(=O)N[C@@H](Cc1ccc(O)cc1)C(=O)NCC(=O)N1CCC[C@H]1C(=O)N1CCC[C@H]1C(=O)N[C@@H](Cc1c[nH]cn1)C(=O)N[C@@H](CCC(N)=O)C(=O)N[C@@H](Cc1ccccc1)C(=O)O | HLA class I histocompatibility antigen, A alpha chain allele A*24:02 | binding | – | – | 1.14 |
| CCCc1cc(C(=O)OC)c(NC(=O)C2CCN(C(C)=O)CC2)s1 | DNA repair protein REV1, C-terminal domain (Homo sapiens, UniProt Q9UBZ9) | inhibitor | – | – | 2.9 |
